Results of several laboratories.
Parts stem from different laboratories: compare values within a part only. Values joined by “and” are separate records of one study, mostly repeats; a detail may differ.
Chain of UniProt Q8IY84 (whole entry, looked up): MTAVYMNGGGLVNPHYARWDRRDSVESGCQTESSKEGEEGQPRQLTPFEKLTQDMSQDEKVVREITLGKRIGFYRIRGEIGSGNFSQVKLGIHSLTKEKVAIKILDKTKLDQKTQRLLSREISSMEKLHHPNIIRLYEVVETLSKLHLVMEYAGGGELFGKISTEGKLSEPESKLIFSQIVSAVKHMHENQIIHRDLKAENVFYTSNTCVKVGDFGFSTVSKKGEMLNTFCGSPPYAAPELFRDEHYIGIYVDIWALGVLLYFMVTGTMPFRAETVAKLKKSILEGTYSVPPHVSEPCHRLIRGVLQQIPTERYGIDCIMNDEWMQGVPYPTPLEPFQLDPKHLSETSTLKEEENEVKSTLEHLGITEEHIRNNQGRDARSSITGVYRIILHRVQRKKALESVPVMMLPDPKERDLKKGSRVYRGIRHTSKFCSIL
Chain of UniProt P24723 (whole entry, looked up): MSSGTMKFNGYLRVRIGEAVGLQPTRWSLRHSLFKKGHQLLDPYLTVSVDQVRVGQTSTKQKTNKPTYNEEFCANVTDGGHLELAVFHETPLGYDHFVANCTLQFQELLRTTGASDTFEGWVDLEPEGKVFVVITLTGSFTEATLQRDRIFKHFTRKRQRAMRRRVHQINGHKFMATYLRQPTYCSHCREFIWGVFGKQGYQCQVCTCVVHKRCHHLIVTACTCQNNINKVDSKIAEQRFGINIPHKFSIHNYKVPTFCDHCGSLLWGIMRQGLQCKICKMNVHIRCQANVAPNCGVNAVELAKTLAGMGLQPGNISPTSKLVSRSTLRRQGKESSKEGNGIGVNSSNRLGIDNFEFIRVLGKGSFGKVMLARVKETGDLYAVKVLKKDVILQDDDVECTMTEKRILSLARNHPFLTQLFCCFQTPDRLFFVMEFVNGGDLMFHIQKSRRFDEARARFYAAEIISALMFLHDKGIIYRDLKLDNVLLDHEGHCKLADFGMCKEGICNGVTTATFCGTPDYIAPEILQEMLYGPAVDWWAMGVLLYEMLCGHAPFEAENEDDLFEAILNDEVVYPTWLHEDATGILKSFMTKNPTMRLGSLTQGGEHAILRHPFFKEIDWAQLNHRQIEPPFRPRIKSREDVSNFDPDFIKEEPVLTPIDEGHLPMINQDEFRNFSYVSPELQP
Chain of UniProt O00506 (whole entry, looked up): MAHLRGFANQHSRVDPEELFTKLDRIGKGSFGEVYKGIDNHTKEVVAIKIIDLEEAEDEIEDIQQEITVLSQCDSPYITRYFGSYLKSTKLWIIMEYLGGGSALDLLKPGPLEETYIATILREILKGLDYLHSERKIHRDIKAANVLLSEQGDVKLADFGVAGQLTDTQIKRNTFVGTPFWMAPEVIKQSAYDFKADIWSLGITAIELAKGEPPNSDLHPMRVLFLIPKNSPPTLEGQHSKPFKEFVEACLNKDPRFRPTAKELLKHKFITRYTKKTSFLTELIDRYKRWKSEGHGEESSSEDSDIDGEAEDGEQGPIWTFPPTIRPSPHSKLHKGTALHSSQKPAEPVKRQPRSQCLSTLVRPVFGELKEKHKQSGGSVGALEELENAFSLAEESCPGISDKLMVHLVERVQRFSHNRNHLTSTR
Chain of UniProt Q8N5S9 (whole entry, looked up): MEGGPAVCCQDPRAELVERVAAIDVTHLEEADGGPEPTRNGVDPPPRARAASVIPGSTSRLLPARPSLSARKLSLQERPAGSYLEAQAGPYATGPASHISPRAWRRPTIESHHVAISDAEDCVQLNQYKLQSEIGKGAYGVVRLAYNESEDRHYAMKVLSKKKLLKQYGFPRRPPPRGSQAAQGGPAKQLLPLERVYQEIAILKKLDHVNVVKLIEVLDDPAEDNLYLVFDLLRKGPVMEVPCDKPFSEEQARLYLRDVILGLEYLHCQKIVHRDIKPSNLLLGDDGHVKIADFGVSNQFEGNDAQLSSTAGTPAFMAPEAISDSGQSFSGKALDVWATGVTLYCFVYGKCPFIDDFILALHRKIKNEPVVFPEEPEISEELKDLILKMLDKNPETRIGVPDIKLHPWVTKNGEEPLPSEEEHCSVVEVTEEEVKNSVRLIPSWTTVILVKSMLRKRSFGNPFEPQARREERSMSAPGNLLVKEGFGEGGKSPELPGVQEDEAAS
Chain of UniProt P30530 (whole entry, looked up): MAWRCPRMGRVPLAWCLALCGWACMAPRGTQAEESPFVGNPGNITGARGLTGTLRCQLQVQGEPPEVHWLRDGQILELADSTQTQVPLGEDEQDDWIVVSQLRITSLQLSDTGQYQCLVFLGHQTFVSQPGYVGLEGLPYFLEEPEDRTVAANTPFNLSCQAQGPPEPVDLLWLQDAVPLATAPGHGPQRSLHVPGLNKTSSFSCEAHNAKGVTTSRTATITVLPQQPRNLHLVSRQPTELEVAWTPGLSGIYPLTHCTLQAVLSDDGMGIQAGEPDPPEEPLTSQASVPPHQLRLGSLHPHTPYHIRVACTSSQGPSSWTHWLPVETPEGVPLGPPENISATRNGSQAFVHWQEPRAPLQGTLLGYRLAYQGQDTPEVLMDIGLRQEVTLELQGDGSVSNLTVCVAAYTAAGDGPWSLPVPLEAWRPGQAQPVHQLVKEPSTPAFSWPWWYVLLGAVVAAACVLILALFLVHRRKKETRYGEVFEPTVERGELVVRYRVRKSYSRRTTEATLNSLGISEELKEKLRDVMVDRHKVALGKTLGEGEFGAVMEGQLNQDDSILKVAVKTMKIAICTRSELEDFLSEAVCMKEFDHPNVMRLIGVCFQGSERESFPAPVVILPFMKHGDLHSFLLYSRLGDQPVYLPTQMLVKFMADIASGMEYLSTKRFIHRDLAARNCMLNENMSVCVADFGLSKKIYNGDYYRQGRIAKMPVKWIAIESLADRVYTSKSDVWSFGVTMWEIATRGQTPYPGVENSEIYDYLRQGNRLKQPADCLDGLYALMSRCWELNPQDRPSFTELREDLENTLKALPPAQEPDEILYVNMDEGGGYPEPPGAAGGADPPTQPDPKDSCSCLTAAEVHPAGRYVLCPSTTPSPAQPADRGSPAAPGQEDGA

Study 1 — read-out: cell-free assay; technique: competition with immobilised ligand; concentration: 1 µM
SMILES: Cc1c(NC(=O)c2cc(C(N)=O)nc3cc(F)ccc23)c(C(F)(F)F)nn1Cc1ccc(C(C)(C)C)cc1
Serine/threonine-protein kinase NIM1 (NIM1K, Homo sapiens, UniProt Q8IY84) — remaining binding: 100%.
The remaining binding was 97% (Fibroblast growth factor receptor 3 (FGFR3, Homo sapiens, UniProt P22607, G697C)).
For Calcium/calmodulin-dependent protein kinase kinase 1 (CAMKK1, Homo sapiens, UniProt Q8N5S9): remaining binding read 98%.
For Mitogen-activated protein kinase 9 (MAPK9, Homo sapiens, UniProt P45984): remaining binding read 100%.
For Cyclin-dependent kinase 4, with cyclin D1 (CDK4, Homo sapiens, UniProt P11802): remaining binding read 100%.
Serine/threonine-protein kinase TAO2 (TAOK2, Homo sapiens, UniProt Q9UL54) — remaining binding: 100%.
For MAP/microtubule affinity-regulating kinase 3 (MARK3, Homo sapiens, UniProt P27448): remaining binding read 100%.
The remaining binding was 97% (Protein kinase C eta type (PRKCH, Homo sapiens, UniProt P24723)).
For Phosphatidylinositol 4,5-bisphosphate 3-kinase catalytic subunit alpha isoform (PIK3CA, Homo sapiens, UniProt P42336): remaining binding read 100%.
Serine/threonine-protein kinase mTOR (MTOR, Homo sapiens, UniProt P42345) — remaining binding: 86%.
Serine/threonine-protein kinase TBK1 (TBK1, Homo sapiens, UniProt Q9UHD2) — remaining binding: 95%.
For G protein-coupled receptor kinase 3 (GRK3, Homo sapiens, UniProt P35626): remaining binding read 100%.
It gave 100% for remaining binding (Serine/threonine-protein kinase 25 (STK25, Homo sapiens, UniProt O00506)).
Tyrosine-protein kinase receptor UFO (AXL, Homo sapiens, UniProt P30530) — remaining binding: 100%.
Mitogen-activated protein kinase 15 (MAPK15, Homo sapiens, UniProt Q8TD08) — remaining binding: 56%.
It gave 100% for remaining binding (Ribosomal protein S6 kinase alpha-1, C-terminal kinase domain (RPS6KA1, Homo sapiens, UniProt Q15418)).
Hormonally up-regulated neu tumor-associated kinase (HUNK, Homo sapiens, UniProt P57058) — remaining binding: 100%.
For Receptor tyrosine-protein kinase erbB-2 (ERBB2, Homo sapiens, UniProt P04626): remaining binding read 92%.
For Tyrosine-protein kinase CSK (CSK, Homo sapiens, UniProt P41240): remaining binding read 94%.
The remaining binding was 100% (Tyrosine-protein kinase JAK2, JH1 (JAK2, Homo sapiens, UniProt O60674)).
The remaining binding was 100% (Rhodopsin kinase GRK7 (GRK7, Homo sapiens, UniProt Q8WTQ7)).
The remaining binding was 100% (Serine/threonine-protein kinase pim-3 (PIM3, Homo sapiens, UniProt Q86V86)).
For Myosin-IIIa (MYO3A, Homo sapiens, UniProt Q8NEV4): remaining binding read 100%.
It gave 100% for remaining binding (Serine/threonine-protein kinase PAK 6 (PAK6, Homo sapiens, UniProt Q9NQU5)).
Interleukin-1 receptor-associated kinase 4 (IRAK4, Homo sapiens, UniProt Q9NWZ3) — remaining binding: 100%.

Study 2 — cell line: Huh-7; concentration: 10 µM; time: 24 h
For COc1ccc(C(=O)c2ccccc2O)c(O)c1, the viability was 96.3%.
CC1=CC(=O)c2ccccc2C1=O has a viability of 57.6%.
With COc1ccccc1OCCNCC(O)COc1cccc2[nH]c3ccccc3c12 (centres unmarked) the viability was 94.7%.
C#C[C@]1(OC(C)=O)CC[C@H]2[C@@H]3CCC4=CC(=NO)CC[C@@H]4[C@H]3CC[C@@]21CC (mixture of isomers) has a viability of 86.1%.
For CCC(=O)OCC(=O)[C@@]1(OC(=O)CC)[C@@H](C)C[C@H]2[C@@H]3CCC4=CC(=O)C=C[C@]4(C)[C@@]3(F)[C@@H](O)C[C@@]21C, the viability was 98.8%.
C[N+](C)(C)CCOC(N)=O gave a viability of 102%.
CCOC(=O)C1=C[C@@H](OC(CC)CC)[C@H](NC(C)=O)[C@@H](N)C1 gave a viability of 105%.
The viability of NC[C@H]1CC[C@H](C(=O)O)CC1 is reported as 100%.
CC(=O)N1CCN(c2ccc(OC[C@@H]3CO[C@@](Cn4ccnc4)(c4ccc(Cl)cc4Cl)O3)cc2)CC1 (racemic) has a viability of 72.6%.

Study 3 — cell line: mouse MPNST tumor cells; technique: high-content immunofluorescence imaging; refers to: nuclear SOX9; concentration: 10 µM; time: 12 h; setting: mean of 2 replicates; reference: DMSO control; direction: higher = more nuclear SOX9
Cc1cc(NC(=O)Nc2ccc(F)c(F)c2)n(-c2ccccc2)n1: “nuclear SOX9 intensity” 91 % of DMSO.
For CCCCc1ncc(/C=C(\Cc2cccs2)C(=O)O)n1Cc1ccc(C(=O)O)cc1, “nuclear SOX9 intensity” read 103 % of DMSO.
Clc1ccccc1C(c1ccccc1)(c1ccccc1)n1ccnc1: “nuclear SOX9 intensity” 92.4 % of DMSO and 102 % of DMSO.
For O=C1O[C@H]([C@@H](O)CO)C(O)=C1O, “nuclear SOX9 intensity” read 96 % of DMSO.
Cc1cccn2c(=O)c(-c3nnn[nH]3)cnc12: “nuclear SOX9 intensity” 118 % of DMSO.
For CCN(CC)CCNC(=O)c1cc(S(C)(=O)=O)ccc1OC, “nuclear SOX9 intensity” read 109 % of DMSO.
Under “nuclear SOX9 intensity”, CCC1(c2c[nH]cn2)Cc2ccccc2C1 is recorded as 96.6 % of DMSO.
O=C(CNC(=O)c1cccc(C(F)(F)F)c1)N[C@@H]1CCN(Cc2ccc(Cl)cc2)C1 — result for “nuclear SOX9 intensity”: 131 % of DMSO.
C[C@]12C=CC(=O)C=C1CC[C@@H]1[C@@H]2C(=O)C[C@@]2(C)[C@H]1CC[C@]2(O)C(=O)CO — result for “nuclear SOX9 intensity”: 95.9 % of DMSO.
Under “nuclear SOX9 intensity”, CN1Cc2c(N)cccc2C(c2ccccc2)C1 (centres unmarked) is recorded as 108 % of DMSO and 107 % of DMSO.
For O=C(Nc1cc(C(F)(F)F)ccc1N1CCCCC1)c1ccncc1, “nuclear SOX9 intensity” read 99.9 % of DMSO.

Study 4 — read-out: enzyme activity; action: inhibitor; concentration: 0.5 µM; reference: control
Target: Cytoplasmic tyrosine-protein kinase BMX (BMX, Homo sapiens, UniProt P51813)
Chain of UniProt P51813 (whole entry, looked up): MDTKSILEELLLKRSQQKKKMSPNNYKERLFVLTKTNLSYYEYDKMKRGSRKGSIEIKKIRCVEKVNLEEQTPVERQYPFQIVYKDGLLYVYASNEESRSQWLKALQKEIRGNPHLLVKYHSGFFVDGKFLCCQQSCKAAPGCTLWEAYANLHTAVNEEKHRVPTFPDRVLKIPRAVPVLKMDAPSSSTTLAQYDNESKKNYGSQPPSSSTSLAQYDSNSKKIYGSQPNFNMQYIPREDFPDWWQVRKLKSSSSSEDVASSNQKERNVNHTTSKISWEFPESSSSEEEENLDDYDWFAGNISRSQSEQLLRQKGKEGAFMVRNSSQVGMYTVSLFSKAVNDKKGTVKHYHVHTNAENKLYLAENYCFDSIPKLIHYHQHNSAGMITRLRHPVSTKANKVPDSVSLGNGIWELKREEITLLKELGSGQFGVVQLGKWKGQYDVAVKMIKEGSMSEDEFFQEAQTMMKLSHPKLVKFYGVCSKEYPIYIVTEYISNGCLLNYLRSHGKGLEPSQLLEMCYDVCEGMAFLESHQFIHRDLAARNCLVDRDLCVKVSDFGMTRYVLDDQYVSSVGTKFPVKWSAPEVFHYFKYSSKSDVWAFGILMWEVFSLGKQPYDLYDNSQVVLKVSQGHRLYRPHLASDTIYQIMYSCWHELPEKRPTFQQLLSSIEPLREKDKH
The remaining activity of Clc1ccc(Nc2nnc(Cc3ccncc3)c3ccccc23)cc1 is reported as 106%.
For O=C(c1ccccc1)c1ccc(N2CCOCC2)cc1O, the remaining activity was 90.4%.
With O=C(O)/C=C/c1cc(Br)c(Br)c(Br)c1Br the remaining activity was 97%.
The remaining activity of Nc1nc(Nc2ccc(S(N)(=O)=O)cc2)nn1C(=S)Nc1c(F)cccc1F is reported as 77.5%.
The remaining activity of O=C1NC(=O)/C(=C/c2ccc3c(c2)OC(F)(F)O3)S1 is reported as 99.6%.
COc1cc2c(Nc3ccc(Br)cc3F)ncnc2cc1OCC1CCN(C)CC1 has a remaining activity of 88.4%.
The remaining activity of c1cc(-c2cnn3cc(-c4ccc(OCCN5CCCCC5)cc4)cnc23)ccn1 is reported as 95.4%.
For N#CC(c1ccnc(NCCc2cccnc2)n1)c1nc2ccccc2s1 (centres unmarked), the remaining activity was 92.9%.
NC(=O)c1cccc(-c2cc(Nc3ccc(OC(F)(F)F)cc3)ncn2)c1 has a remaining activity of 107%.
For NC(=O)c1ccc(-c2nc(-c3ccc4c(c3)OCCO4)c(-c3ccccn3)[nH]2)cc1, the remaining activity was 100%.
CC(C)N(CCC(=O)c1ccc2ccccc2c1)Cc1ccccc1 has a remaining activity of 102%.
The remaining activity of O=Nc1c(-c2c(O)[nH]c3ccccc23)[nH]c2ccccc12 is reported as 80.1%.
N#C/C(=C(/N)SC1C=CC=CC1)c1cccc(C(O)c2ccncc2)c1 (centres unmarked) has a remaining activity of 81.2%.
CC(C)n1cnc2c(Nc3cccc(Cl)c3)nc(NCCO)nc21 gave a remaining activity of 92.5%.
For CC(C)(C)c1nc2c3cc[nH]c(=O)c3c3cc(F)ccc3c2[nH]1, the remaining activity was 71.9%.
CCN(CC)CCCCN1c2ccccc2Oc2ccc(Cl)cc21 has a remaining activity of 104%.
The remaining activity of CCCCc1c(-c2ccc(O)cc2)[nH]c2nccnc12 is reported as 86.8%.
